Experimental data collected from several papers.
Compare with care: the assays were run in different laboratories. Several values in a cell are separate wells, animals, samples, runs or records. Numbers after ± are the reported error.

COc1cc2nc(N3CCCN(C)CC3)nc(NC3CCN(Cc4ccccc4)CC3)c2cc1OC — viability (HBL-1; 0.1 µM, 120 h): 122%
Cc1ccccc1Cn1cc(-c2cccc(NC(=O)Nc3ccc(F)cc3)c2)nn1 — mRNA level (Huh-7; RT-PCR, item: Bcl2 and Bax; 10 µM, 72 h): decreased
O=C(O)C(Cc1c[nH]c2ccccc12)N1C(=O)c2ccccc2C1=O (centres unmarked) — viability (HBL-1; 0.1 µM, 120 h): 108%
CCc1cnc(N2CCC(c3nc(COc4ccc(-n5cnnn5)cc4)cs3)CC2)nc1 — normalized enrichment score (HEK-293T; RNA-seq GSEA, item: HALLMARK_HYPOXIA; concentration not given; direction not given): 1.55
Clc1ccc(-c2csc(NN=C3CCCC3)n2)cc1 — viability (HBL-1; 1 µM, 120 h): 94%
Nc1n[nH]c2nc(-c3cccc(O)c3)cc(-c3cc4ccccc4nc3N3CCOCC3)c12 — EC50 (WI-38; cell viability, MTT; 72 h): 0.294 ± 0.001 µM
C=CC1=C(C)c2cc3[n-]c(cc4nc(cc5[n-]c(cc1n2)c(C)c5C=C)C(C)=C4CCC(=O)O)c(CCC(=O)O)c3C.[Zn+2] — fold change (SH-SY5Y; RNA-seq, item: TMC6 mRNA; 5 µM, 5 h; relative to: untreated cells): 1.58
CCOC(=O)c1c(C)[nH]c(/C=C2\C(=O)Nc3ccccc32)c1C — inhibition (HeLa expressing Ub(G76V)-GFP; Ub(G76V)-GFP degradation, cycloheximide chase; 12 µM): 100%
COc1cc2c(NC3CCN(C(C)C)CC3)nc(N3CCC(F)(F)CC3)nc2cc1OCCCN1CCCC1 — viability (HBL-1; 0.5 µM, 120 h): 120%
CC(C)C[C@H](NC(=O)[C@@H](NC(=O)c1cccc(-c2ccccc2)n1)[C@@H](C)O)B(O)O — inhibition (BT-12; cell viability, MTT; 10 µM, 72 h): 94.4%
Nc1[nH]nc2nc3ccccc3nc12 — inhibition (HeLa expressing Ub(G76V)-GFP; Ub(G76V)-GFP degradation, cycloheximide chase; 12 µM): -17%
C#CCCC(=O)SCCNC(=O)CCNC(=O)[C@H](O)C(C)(C)COP(=O)(O)OP(=O)(O)OC[C@H]1O[C@@H](n2cnc3c(N)ncnc32)[C@H](O)[C@@H]1OP(=O)(O)O — viability (HBL-1; 1 µM, 120 h): 106%
Cc1c(C(=O)O)ccc2c3n(nc12)[C@@H]1[C@H](C3)N(CC2CC2)[C@@]2(C(=O)Nc3cc(Cl)ccc32)[C@H]1c1cccc(Cl)c1F — GI50 (SW982 (MDM2 non-amplified); cell proliferation, alamarBlue; 120 h): 0.008 µM
CC[S+]([O-])c1nc(-c2cccc(OCc3ccccc3)c2)cc(C(F)(F)F)n1 (centres unmarked) — cells with nuclear RelA (HeLa Kyoto; RelA nuclear import, high content imaging; 0.16 µM, 3 h, with: 1 µM PMA, 60 min): 69.8% and 87.2%
Cn1cc(-c2ccc(-c3cncc(Cl)c3N3CCC4(CCNC4=O)CC3)cc2)cn1 — log2 fold change (COLO 205; gene expression, microarray, item: NDRG1 mRNA; concentration not given, 2 h; relative to: untreated cells): 2.07
O=C(/C=C/C=C/C=C/C1CCCCC1)NC1=C[C@@](O)(/C=C/C=C/C=C/C(=O)NC2=C(O)CCC2=O)[C@@H]2O[C@@H]2C1=O — GI50 (A2058; cell growth, CellTiter-Glo; 78 h): 19.3 µM
Cc1[nH]c2ccccc2c1CCNCc1ccc(/C=C/C(=O)NO)cc1 — viability (HBL-1; 0.5 µM, 120 h): 0.252%
CCCCN1CCN(c2ccc3[nH]c(-c4ccc5[nH]c(-c6ccc(OCC)c(OCC)c6)nc5c4)nc3c2)CC1 — growth percent (Hs-578T; SRB; 10 µM, 48 h): 35.2%
C=CCn1c(=O)c2cnc(Nc3ccc(N4CCN(C)CC4)cc3)nc2n1-c1ccc2c(n1)[C@@](O)(CC)CC2 — mitotic γH2AX-negative G2/M cells (OVCAR-3; flow cytometry, item: pHH3+ γH2AX-; concentration not given): 15.5%
Cc1cncc2cccc(S(=O)(=O)N3CCCN(C(=O)CN)C[C@@H]3C)c12 — inhibition (HeLa expressing Ub(G76V)-GFP; Ub(G76V)-GFP degradation, cycloheximide chase; 12 µM): 20%
CCn1cc(-c2cc(Cn3ccnc3)cc3c2CCN([C@H](c2cc(OC)ccn2)C2CC2)C3=O)c(C(F)(F)F)n1 — EC50 (HuTu80; cell growth, inhibitor; 120 h): 9.27 µM
CC(C)N(C[C@H]1O[C@@H](n2cnc3c(N)ncnc32)[C@H](O)[C@@H]1O)[C@H]1C[C@@H](CCc2nc3cc(C(C)(C)C)ccc3[nH]2)C1 — viability (HBL-1; 0.5 µM, 120 h): 148%
COC[C@H](NC(=O)c1cnc(C)s1)C(=O)N[C@@H](COC)C(=O)N[C@@H](Cc1ccccc1)C(=O)[C@@]1(C)CO1 — inhibition (BT-12; cell viability, MTT; 10 µM, 72 h): 95%

Repeated from above:
Nc1n[nH]c2nc(-c3cccc(O)c3)cc(-c3cc4ccccc4nc3N3CCOCC3)c12 — EC50 (WI-38; cell viability, MTT; 72 h): 0.294 ± 0.001 µM
C=CC1=C(C)c2cc3[n-]c(cc4nc(cc5[n-]c(cc1n2)c(C)c5C=C)C(C)=C4CCC(=O)O)c(CCC(=O)O)c3C.[Zn+2] — fold change (SH-SY5Y; RNA-seq, item: TMC6 mRNA; 5 µM, 5 h; relative to: untreated cells): 1.58
